Assay results gathered from unrelated publications.
Parts stem from different laboratories: compare values within a part only.
Chain of UniProt Q9NYY3 (whole entry, looked up): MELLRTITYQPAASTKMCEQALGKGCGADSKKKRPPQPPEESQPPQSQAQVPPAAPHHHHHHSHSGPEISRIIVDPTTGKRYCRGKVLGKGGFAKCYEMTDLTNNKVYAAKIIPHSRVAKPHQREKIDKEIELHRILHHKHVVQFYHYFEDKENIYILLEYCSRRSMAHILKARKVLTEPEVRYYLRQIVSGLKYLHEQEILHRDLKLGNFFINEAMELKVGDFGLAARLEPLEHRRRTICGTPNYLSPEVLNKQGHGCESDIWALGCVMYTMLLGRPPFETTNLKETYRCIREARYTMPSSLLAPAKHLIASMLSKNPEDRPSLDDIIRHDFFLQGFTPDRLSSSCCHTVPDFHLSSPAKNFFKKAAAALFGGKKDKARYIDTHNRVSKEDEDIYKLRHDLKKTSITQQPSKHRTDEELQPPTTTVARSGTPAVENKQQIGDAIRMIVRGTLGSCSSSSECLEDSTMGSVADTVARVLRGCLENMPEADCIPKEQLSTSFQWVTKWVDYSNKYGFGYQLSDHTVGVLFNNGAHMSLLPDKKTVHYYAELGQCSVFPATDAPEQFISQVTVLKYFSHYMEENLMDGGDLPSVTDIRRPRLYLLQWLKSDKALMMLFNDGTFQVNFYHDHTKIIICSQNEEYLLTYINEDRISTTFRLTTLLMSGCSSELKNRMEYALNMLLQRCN
Chain of UniProt O94921 (whole entry, looked up): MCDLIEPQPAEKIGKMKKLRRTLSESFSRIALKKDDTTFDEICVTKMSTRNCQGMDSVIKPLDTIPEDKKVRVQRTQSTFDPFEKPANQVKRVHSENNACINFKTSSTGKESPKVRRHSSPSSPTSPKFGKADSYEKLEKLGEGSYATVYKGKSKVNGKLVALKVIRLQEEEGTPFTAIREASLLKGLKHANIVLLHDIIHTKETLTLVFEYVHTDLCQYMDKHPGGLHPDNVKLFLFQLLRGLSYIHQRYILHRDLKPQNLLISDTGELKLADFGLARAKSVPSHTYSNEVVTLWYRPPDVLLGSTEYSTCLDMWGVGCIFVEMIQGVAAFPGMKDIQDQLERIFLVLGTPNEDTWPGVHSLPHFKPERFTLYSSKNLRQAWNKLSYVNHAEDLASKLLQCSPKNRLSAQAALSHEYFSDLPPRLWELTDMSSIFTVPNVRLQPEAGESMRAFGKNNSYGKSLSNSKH
Chain of UniProt P19784 (whole entry, looked up): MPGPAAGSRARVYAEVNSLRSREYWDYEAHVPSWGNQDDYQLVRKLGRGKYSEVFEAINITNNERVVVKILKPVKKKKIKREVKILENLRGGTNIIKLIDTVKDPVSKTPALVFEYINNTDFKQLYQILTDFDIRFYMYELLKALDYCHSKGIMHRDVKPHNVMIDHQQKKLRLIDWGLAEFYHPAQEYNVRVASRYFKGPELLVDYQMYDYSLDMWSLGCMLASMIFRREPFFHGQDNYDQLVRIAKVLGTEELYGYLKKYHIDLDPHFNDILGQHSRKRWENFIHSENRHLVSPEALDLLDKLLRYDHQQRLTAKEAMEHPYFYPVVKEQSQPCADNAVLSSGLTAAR
Chain of UniProt O14757 (whole entry, looked up): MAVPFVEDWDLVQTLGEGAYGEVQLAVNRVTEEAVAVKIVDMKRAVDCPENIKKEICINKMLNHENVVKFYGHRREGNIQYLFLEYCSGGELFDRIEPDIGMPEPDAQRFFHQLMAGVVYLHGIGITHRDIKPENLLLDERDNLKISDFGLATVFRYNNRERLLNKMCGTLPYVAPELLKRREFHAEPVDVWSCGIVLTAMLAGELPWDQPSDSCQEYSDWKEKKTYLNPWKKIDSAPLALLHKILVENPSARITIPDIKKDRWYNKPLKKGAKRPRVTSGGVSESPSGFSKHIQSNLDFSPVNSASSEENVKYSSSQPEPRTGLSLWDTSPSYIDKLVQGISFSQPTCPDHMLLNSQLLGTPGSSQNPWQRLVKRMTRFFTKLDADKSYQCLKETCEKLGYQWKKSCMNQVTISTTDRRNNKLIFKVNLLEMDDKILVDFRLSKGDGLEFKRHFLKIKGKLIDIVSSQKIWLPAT
Chain of UniProt Q9Y243 (whole entry, looked up): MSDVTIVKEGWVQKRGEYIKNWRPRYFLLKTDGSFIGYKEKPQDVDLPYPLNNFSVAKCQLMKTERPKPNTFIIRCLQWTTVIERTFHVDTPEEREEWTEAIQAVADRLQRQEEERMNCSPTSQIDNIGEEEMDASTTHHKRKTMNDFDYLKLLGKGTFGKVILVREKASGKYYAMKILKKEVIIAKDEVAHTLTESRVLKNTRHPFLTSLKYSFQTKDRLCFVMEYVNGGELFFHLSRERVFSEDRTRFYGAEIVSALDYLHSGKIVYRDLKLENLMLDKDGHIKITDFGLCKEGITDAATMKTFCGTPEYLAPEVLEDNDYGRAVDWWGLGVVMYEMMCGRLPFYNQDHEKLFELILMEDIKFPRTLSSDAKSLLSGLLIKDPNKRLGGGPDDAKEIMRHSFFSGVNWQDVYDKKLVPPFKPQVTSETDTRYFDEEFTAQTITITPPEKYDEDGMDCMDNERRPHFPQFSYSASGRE
Chain of UniProt Q15208 (whole entry, looked up): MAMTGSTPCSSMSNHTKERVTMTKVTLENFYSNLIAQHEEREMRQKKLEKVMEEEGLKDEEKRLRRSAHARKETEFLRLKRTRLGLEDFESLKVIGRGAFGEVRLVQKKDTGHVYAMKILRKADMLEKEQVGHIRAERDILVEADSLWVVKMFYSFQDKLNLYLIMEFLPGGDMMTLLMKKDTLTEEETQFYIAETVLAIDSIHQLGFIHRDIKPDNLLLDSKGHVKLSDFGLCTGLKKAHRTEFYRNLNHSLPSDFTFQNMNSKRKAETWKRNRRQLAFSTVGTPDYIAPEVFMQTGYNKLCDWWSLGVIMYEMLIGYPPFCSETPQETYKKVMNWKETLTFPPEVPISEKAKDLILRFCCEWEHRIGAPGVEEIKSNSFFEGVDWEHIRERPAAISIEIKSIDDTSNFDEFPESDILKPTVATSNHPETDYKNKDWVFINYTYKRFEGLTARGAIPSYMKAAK
Chain of UniProt Q9UKE5 (whole entry, looked up): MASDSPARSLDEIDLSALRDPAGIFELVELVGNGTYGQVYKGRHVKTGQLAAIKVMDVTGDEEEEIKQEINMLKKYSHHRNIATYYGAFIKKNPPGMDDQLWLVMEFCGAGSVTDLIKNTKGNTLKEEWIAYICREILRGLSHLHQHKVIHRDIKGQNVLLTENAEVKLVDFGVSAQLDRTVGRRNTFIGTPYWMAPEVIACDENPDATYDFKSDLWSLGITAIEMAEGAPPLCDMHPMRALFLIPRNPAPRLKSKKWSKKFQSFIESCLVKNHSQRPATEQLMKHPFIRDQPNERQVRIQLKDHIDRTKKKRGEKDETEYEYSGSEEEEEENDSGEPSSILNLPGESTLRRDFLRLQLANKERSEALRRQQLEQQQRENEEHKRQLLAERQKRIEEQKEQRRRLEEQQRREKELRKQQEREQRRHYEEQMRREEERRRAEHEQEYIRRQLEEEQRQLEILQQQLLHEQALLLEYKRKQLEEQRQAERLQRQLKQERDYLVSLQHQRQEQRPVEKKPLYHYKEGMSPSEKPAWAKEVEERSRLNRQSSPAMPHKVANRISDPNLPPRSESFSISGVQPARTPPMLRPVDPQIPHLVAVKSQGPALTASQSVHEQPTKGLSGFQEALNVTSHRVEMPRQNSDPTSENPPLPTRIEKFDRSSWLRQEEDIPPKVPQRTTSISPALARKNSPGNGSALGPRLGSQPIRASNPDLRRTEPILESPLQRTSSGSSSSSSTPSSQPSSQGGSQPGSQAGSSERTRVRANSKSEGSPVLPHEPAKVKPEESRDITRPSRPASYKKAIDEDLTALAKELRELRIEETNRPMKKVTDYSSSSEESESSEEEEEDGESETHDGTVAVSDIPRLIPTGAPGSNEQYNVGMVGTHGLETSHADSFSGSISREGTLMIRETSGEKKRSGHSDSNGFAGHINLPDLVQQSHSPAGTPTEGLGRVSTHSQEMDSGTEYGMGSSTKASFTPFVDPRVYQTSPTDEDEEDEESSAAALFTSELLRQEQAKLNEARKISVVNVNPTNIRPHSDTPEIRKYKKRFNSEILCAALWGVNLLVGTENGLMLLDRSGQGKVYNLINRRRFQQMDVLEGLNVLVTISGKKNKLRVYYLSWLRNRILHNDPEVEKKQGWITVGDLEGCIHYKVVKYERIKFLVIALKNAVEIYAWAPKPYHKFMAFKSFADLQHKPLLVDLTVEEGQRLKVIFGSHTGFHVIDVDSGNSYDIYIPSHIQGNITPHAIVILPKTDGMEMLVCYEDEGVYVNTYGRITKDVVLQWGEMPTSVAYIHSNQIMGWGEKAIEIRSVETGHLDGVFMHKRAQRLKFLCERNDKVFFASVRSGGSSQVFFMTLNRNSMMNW

Study 1 — SMILES: Oc1ccc(Nc2nc(-c3ccc(Cl)cc3)cs2)cc1; effect on: enzyme activity; action: inhibitor; concentration: 0.5 µM; reference: control; quantity: remaining activity
AKT3 (Homo sapiens, UniProt Q9Y243): 105%
PRKCD (Homo sapiens, UniProt Q05655): 86.9%
KIT (Homo sapiens, UniProt P10721): 92%
MAPK12 (Homo sapiens, UniProt P53778): 106%
MAP4K2 (Homo sapiens, UniProt Q12851): 103%
BTK (Homo sapiens, UniProt Q06187): 107%
MAP2K6 (Homo sapiens, UniProt P52564): 94%
MAP3K10 (Homo sapiens, UniProt Q02779): 100%
LYN (Homo sapiens, UniProt P07948): 100%
CSNK1A1 (Homo sapiens, UniProt P48729): 96.4%
MAPK13 (Homo sapiens, UniProt O15264): 107%
PRKG1 (Homo sapiens, UniProt Q13976): 98.5%
NEK4 (Homo sapiens, UniProt P51957): 104%
STK38 (Homo sapiens, UniProt Q15208): 98.2%
WNK2 (Homo sapiens, UniProt Q9Y3S1): 101%
EPHA5 (Homo sapiens, UniProt P54756): 92.6%
CHEK1 (Homo sapiens, UniProt O14757): 99.4%
PLK2 (Homo sapiens, UniProt Q9NYY3): 105%
Cyclin-dependent kinase 9, with cyclin T1 (CDK9, Homo sapiens, UniProt P50750): 87.8%
PRKCI (Homo sapiens, UniProt P41743): 99.5%
CSNK2A1 (Homo sapiens, UniProt P68400): 101%
MKNK2 (Homo sapiens, UniProt Q9HBH9): 84.5%
LRRK2 (Homo sapiens, UniProt Q5S007): 98.7%
IRAK4 (Homo sapiens, UniProt Q9NWZ3): 111%

Study 2 — effect on: enzyme activity; action: inhibitor; concentration: 10 µM; quantity: inhibition
Target: Calcium/calmodulin-dependent protein kinase type II subunit alpha (CAMK2A, Homo sapiens, UniProt Q9UQM7)
Chain of UniProt Q9UQM7 (whole entry, looked up): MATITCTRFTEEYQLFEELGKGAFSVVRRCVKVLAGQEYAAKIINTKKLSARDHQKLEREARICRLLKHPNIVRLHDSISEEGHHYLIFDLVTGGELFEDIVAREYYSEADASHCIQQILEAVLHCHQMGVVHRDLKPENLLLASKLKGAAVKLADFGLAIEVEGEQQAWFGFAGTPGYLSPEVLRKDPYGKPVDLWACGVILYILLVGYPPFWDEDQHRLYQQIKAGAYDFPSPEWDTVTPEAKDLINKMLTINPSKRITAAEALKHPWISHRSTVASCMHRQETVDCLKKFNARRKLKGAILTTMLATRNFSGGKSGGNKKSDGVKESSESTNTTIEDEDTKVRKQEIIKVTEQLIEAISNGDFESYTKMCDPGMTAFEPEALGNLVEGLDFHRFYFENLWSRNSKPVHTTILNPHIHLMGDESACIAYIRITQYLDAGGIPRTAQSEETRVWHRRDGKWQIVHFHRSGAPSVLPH
COc1ccc(-c2cc(=O)c3c(O)cc(O[C@@H]4O[C@H](CO[C@@H]5O[C@@H](C)[C@H](O)[C@@H](O)[C@H]5O)[C@@H](O)[C@H](O)[C@H]4O)cc3o2)cc1O: 15%
OC[C@H]1O[C@@H](Oc2cc(O)cc(/C=C/c3ccc(O[C@@H]4O[C@H](CO)[C@@H](O)[C@H](O)[C@H]4O)cc3O)c2)[C@H](O)[C@@H](O)[C@@H]1O: -17%
CC(C)=CC[C@@H](OC(=O)C=C(C)C)C1=CC(=O)c2c(O)ccc(O)c2C1=O: 9%
CC1(C)CC[C@]2(C(=O)O)CC[C@]3(C)C(=CC[C@@H]4[C@@]5(C)CC[C@H](O[C@@H]6O[C@H](C(=O)O)[C@@H](O)[C@H](O[C@@H]7OC[C@@H](O)[C@H](O)[C@H]7O)[C@H]6O)C(C)(C)[C@@H]5CC[C@]43C)[C@@H]2C1: -3%
O=C(O)CCNC(=O)c1ccc(/N=N/c2ccc(O)c(C(=O)O)c2)cc1: -8%
O=c1cc(-c2ccccc2)oc2ccc(O)cc12: -6%
CC1(C)CCC(C)(C)c2cc(NC(=O)c3ccc(C(=O)O)cc3)ccc21: -2%
Cn1c(=O)c2c(ncn2CC(=O)O)n(C)c1=O: 9%
C/C=C(\C)C(=O)O[C@@H]1c2cc(OC)c(OC)c(OC)c2-c2c(cc3c(c2OC)OCO3)C[C@H](C)[C@@]1(C)O: -8%
CC(=O)OCC(=O)[C@@]1(O)CC[C@H]2[C@@H]3CCC4=CC(=O)CC[C@]4(C)[C@H]3[C@@H](O)C[C@@]21C: -3%
C[C@]12CC[C@@H]3c4ccc(O)cc4CC[C@H]3[C@@H]1CC[C@H]2O: 21%
CC(C)(O[C@@H]1O[C@H](CO)[C@@H](O)[C@H](O)[C@H]1O)[C@@H]1CC[C@](C)([C@H]2[C@@H](O)C[C@@]3(C)[C@@H]4C[C@H](O)[C@H]5C(C)(C)[C@@H](O[C@@H]6OC[C@@H](O)[C@H](O)[C@H]6O)CC[C@@]56C[C@@]46CC[C@]23C)O1: 7%
Oc1ccc(N=Nc2ccccn2)c(O)c1: -4%
O=C(O[C@H](Cc1ccc(O)c(O)c1)C(=O)O)C1=Cc2cc(O)c(O)cc2[C@H](c2ccc(O)c(O)c2)[C@H]1C(=O)OC(Cc1ccc(O)c(O)c1)C(=O)O (stereo in doubt): -8%
COc1ccc2c(c1OC)CN(C)c1c-2ccc2cc3c(cc12)OCO3: -2%
C[C@H]1O[C@@H](O[C@H]2CC[C@@]3(C)[C@@H](CC[C@]4(C)[C@@H]3C=C[C@]35OC[C@@]6(CCC(C)(C)C[C@H]63)[C@@H](O)C[C@]54C)[C@]2(C)CO)[C@H](O)[C@@H](O[C@@H]2O[C@H](CO)[C@@H](O)[C@H](O)[C@H]2O)[C@H]1O: -15%
CC(C)(O)[C@H]1Cc2cc3ccc(=O)oc3cc2O1: -4%
OC1OC[C@@H](O[C@@H]2OC[C@@H](O[C@@H]3OC[C@@H](O)[C@H](O)[C@H]3O)[C@H](O)[C@H]2O)[C@H](O)[C@H]1O (stereo partly drawn): 3%
O=c1cc(-c2ccccc2)oc2cc(O)cc(O[C@@H]3O[C@H](CO)[C@@H](O)[C@H](O)[C@H]3O)c12: 13%
c1ccc(-c2ccc(C(c3ccccc3)n3ccnc3)cc2)cc1 (stereo not drawn): 0%
CC(=O)N[C@H]1[C@H]([C@H](O)[C@H](O)CO)OC(C(=O)O)=C[C@@H]1N=C(N)N: 0%

Study 3 — effect on: acetyl-histone H4 peptide binding; technique: AlphaScreen displacement; concentration: 50 µM; quantity: inhibition
Target: Bromodomain-containing protein 4, BD1 (BRD4, Homo sapiens, UniProt O60885)
N#Cc1c(-c2ccccc2)cc(-c2cc(Br)ccc2O)[nH]c1=O: 54.9%
COc1ccc(-c2nnc3ccc(SCC(=O)N4CCCCCC4)nn23)cc1OC: 13%
O=C(CSc1ccc2nnc(-c3ccc(Cl)cc3)n2n1)N1CCOCC1: 5.7%
COc1ccc(OC)c(NC(=O)c2cc(-c3cc(Cl)ccc3O)n[nH]2)c1: 31.5%
O=C1c2c(O)ccc(O)c2C(=O)c2c(NCCCO)ccc(NCCCO)c21: 57.4%
CN1CCN(Cc2c(-c3ccco3)[nH]c3ncccc23)CC1: 4.2%
Cc1ccc(C(=O)O)cc1-c1ccc(C=C2NC(=O)N(c3ccccc3)C2=O)o1: 1.1%
Cc1cc(O)c2c(c1)C(=O)c1cc(O)cc(O)c1C2=O: 51.8%
CN(C)CC1CCn2cc(c3ccccc32)C2=C(C(=O)NC2=O)c2cn(c3ccccc23)CCO1 (stereo not drawn): 91%
Nc1nc(Nc2ccc(S(N)(=O)=O)cc2)nn1C(=O)c1c(F)cccc1F: 9.5%
O=C1Nc2ccccc2C1=Nc1ccc(C(=O)O)cc1: 6.45%
CC(=O)Nc1cn2c(NC(=O)c3cccnc3)c(Cc3ccccc3)nc2cn1: 9.4%
CN[C@@H]1C[C@H]2O[C@@](C)([C@@H]1OC)n1c3ccccc3c3c4c(c5c6ccccc6n2c5c31)C(=O)N[C@H]4O: 33.6%
c1coc(-c2[nH]c3ncccc3c2CN2CCOCC2)c1: 7.55%
Br.CC(=O)c1cccc(Nc2nc(-c3c(C)nc4ccccn34)cs2)c1: 24.9%
CCC(C)(C)C1CCc2sc3nc[nH]c(=O)c3c2C1 (stereo not drawn): 8%
CCCCCOc1ccc(NC(=O)Nc2ccc(Cl)c(Cl)c2)cc1: 15.8%
N#CC(=C1CCCN1)c1nc2ccccc2s1: 6.2%
c1ccc(-c2cnc3c(N4CCOCC4)nccn23)cc1: 16.8%
COc1ccc(C(=O)c2sc(Nc3cccc(C(F)(F)F)c3)nc2N)cc1: 10.4%

Study 4 — SMILES: c1ccc(N2CCN(Cc3nc4ccccc4[nH]3)CC2)nc1; concentration: 1 µM; quantity: remaining binding
MAP2K5 (Homo sapiens, UniProt Q13163); binding, competition with immobilised ligand: 83%
CLK3 (Homo sapiens, UniProt P49761); binding, competition with immobilised ligand: 100%
TNIK (Homo sapiens, UniProt Q9UKE5); binding, competition with immobilised ligand: 100%
AAK1 (Homo sapiens, UniProt Q2M2I8); binding: 100%
DAPK3 (Homo sapiens, UniProt O43293); binding, competition with immobilised ligand: 91%
CSNK2A2 (Homo sapiens, UniProt P19784); cell-free assay, competition with immobilised ligand: 100%
PLK2 (Homo sapiens, UniProt Q9NYY3); binding, competition with immobilised ligand: 100%
CASK (Homo sapiens, UniProt O14936); binding, competition with immobilised ligand: 97%
PIM1 (Homo sapiens, UniProt P11309); binding, competition with immobilised ligand: 90%
ABL2 (Homo sapiens, UniProt P42684); binding, competition with immobilised ligand: 100%
DYRK1B (Homo sapiens, UniProt Q9Y463); cell-free assay, competition with immobilised ligand: 100%
CSNK1A1L (Homo sapiens, UniProt Q8N752); cell-free assay, competition with immobilised ligand: 100%
FGFR1 (Homo sapiens, UniProt P11362); cell-free assay, competition with immobilised ligand: 100%
HASPIN (Homo sapiens, UniProt Q8TF76); cell-free assay, competition with immobilised ligand: 100%
WNK1 (Homo sapiens, UniProt Q9H4A3); binding, competition with immobilised ligand: 100%
BMPR1B (Homo sapiens, UniProt O00238); cell-free assay, competition with immobilised ligand: 100%
PIM3 (Homo sapiens, UniProt Q86V86); binding, competition with immobilised ligand: 100%
PIK3CA (Homo sapiens, UniProt P42336, E542K); cell-free assay, competition with immobilised ligand: 100%
GSK3B (Homo sapiens, UniProt P49841); cell-free assay, competition with immobilised ligand: 93%
CDK14 (Homo sapiens, UniProt O94921); binding, competition with immobilised ligand: 100%
CDK13 (Homo sapiens, UniProt Q14004); binding, competition with immobilised ligand: 100%
MYLK4 (Homo sapiens, UniProt Q86YV6); cell-free assay, competition with immobilised ligand: 97%
HCK (Homo sapiens, UniProt P08631); cell-free assay, competition with immobilised ligand: 100%
MET (Homo sapiens, UniProt P08581, M1250T); cell-free assay, competition with immobilised ligand: 100%
BMPR2 (Homo sapiens, UniProt Q13873); cell-free assay, competition with immobilised ligand: 100%

Excerpt of the above (study 1):
PLK2 (Homo sapiens, UniProt Q9NYY3): 105%
KIT (Homo sapiens, UniProt P10721): 92%
MAP3K10 (Homo sapiens, UniProt Q02779): 100%
PRKCI (Homo sapiens, UniProt P41743): 99.5%
WNK2 (Homo sapiens, UniProt Q9Y3S1): 101%
